{"data": "Published values from different studies", "note": "Each line is one published result; not all experiments were run side by side.", "sequence of UniProt P27361 (whole entry, looked up)": "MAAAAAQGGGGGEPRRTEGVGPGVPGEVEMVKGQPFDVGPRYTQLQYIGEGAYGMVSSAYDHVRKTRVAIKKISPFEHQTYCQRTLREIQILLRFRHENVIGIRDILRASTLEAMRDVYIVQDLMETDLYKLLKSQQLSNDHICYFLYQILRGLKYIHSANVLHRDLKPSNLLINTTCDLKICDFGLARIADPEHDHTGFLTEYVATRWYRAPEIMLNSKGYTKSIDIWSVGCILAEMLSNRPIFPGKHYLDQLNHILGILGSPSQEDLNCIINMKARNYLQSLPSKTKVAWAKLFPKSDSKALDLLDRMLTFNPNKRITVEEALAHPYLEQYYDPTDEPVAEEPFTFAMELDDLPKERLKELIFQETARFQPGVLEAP", "sequence of UniProt Q9BZL6 (whole entry, looked up)": "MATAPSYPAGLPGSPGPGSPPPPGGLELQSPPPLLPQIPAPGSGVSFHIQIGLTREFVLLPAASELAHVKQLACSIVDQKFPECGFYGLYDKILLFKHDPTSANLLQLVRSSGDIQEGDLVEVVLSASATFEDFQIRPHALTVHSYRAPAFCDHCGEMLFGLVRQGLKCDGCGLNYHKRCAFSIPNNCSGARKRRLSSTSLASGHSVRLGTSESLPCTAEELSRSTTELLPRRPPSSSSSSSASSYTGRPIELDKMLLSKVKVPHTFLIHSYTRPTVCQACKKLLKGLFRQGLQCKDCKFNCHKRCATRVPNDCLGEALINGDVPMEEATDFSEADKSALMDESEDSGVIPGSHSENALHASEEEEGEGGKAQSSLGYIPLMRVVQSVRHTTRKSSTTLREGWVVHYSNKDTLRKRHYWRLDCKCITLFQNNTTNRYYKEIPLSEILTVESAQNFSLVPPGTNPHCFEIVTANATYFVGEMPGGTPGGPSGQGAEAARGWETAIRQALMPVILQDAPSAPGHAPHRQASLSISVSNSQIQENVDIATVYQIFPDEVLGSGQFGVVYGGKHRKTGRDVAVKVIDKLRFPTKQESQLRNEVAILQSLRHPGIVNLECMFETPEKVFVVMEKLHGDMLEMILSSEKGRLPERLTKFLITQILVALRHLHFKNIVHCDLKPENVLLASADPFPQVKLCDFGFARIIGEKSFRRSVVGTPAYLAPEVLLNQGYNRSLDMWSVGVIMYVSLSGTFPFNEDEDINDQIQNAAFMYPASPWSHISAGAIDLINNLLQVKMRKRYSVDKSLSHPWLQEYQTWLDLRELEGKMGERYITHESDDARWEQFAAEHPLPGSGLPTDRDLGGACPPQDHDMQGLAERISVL", "sequence of UniProt O15111 (whole entry, looked up)": "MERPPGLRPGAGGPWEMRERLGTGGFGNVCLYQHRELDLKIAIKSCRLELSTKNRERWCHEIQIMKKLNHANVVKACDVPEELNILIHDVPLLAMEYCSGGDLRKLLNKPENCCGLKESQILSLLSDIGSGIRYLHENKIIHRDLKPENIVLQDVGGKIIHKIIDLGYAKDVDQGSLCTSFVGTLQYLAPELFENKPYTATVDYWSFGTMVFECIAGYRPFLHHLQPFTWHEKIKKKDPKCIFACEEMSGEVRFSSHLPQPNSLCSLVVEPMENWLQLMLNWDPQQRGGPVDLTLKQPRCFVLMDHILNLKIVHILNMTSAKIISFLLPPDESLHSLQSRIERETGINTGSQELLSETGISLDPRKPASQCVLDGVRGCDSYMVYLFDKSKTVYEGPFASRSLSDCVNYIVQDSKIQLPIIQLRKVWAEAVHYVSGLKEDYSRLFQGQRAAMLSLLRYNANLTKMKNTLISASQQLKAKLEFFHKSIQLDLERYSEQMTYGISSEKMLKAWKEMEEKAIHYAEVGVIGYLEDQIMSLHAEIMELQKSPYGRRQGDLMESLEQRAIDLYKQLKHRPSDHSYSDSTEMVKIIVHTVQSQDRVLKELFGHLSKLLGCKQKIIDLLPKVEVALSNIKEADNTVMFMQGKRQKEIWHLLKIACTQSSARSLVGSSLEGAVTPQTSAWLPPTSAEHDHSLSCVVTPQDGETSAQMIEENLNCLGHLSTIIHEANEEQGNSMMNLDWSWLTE", "sequence of UniProt P21728 (whole entry, looked up)": "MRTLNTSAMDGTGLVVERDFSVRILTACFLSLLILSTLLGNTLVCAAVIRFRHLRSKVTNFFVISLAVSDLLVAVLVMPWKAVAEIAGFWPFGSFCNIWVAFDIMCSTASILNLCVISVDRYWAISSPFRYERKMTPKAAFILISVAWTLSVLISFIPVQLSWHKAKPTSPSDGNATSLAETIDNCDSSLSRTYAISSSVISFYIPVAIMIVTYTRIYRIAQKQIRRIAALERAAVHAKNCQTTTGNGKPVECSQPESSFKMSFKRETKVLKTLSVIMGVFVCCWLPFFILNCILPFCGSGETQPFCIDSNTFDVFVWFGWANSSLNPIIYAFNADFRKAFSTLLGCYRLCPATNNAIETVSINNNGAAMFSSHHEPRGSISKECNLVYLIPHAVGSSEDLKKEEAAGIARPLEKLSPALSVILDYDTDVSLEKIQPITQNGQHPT", "sequence of UniProt Q86SP6 (whole entry, looked up)": "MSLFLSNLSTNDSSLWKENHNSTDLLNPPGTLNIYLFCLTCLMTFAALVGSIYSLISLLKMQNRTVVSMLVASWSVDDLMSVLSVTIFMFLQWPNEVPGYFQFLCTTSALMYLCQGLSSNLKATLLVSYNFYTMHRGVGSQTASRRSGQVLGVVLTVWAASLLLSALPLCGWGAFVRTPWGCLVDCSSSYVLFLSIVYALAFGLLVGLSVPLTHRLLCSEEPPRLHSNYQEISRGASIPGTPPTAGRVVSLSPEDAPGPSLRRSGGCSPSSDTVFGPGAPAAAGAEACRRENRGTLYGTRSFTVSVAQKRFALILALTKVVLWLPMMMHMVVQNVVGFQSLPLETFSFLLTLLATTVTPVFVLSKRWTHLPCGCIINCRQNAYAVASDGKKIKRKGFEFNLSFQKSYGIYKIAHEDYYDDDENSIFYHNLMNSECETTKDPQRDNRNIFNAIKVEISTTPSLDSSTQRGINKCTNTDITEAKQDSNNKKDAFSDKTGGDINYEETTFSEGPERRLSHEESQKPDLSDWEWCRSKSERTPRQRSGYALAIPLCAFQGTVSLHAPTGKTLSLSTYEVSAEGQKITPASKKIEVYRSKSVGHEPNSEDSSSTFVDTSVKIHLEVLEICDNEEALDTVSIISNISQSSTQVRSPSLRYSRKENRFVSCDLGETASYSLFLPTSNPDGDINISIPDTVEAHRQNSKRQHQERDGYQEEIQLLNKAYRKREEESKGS", "sequence of UniProt P21397 (whole entry, looked up)": "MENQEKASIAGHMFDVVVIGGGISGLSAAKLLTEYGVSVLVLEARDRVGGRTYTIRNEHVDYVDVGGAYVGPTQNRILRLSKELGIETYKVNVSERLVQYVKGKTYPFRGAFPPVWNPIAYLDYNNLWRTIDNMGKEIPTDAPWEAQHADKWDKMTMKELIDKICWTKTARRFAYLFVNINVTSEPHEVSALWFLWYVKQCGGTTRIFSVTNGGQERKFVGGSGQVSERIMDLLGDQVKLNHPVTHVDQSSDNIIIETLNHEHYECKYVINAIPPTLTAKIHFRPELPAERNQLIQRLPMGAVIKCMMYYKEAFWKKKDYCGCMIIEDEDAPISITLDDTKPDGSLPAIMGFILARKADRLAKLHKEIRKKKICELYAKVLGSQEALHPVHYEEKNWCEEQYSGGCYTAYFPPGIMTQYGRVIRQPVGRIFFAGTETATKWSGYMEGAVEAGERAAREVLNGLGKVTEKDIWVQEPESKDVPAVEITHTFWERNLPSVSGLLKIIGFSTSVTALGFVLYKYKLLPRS", "sequence of UniProt Q15722 (whole entry, looked up)": "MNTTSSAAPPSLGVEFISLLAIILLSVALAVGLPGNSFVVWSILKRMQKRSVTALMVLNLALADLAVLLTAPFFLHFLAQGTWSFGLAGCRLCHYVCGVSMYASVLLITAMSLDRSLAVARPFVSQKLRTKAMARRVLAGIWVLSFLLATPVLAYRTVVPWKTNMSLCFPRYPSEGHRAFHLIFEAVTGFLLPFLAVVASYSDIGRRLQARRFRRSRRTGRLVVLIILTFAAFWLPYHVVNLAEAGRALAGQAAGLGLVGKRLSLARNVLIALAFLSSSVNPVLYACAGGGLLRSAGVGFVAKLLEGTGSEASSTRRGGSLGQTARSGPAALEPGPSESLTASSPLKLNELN", "sequence of UniProt P49753 (whole entry, looked up)": "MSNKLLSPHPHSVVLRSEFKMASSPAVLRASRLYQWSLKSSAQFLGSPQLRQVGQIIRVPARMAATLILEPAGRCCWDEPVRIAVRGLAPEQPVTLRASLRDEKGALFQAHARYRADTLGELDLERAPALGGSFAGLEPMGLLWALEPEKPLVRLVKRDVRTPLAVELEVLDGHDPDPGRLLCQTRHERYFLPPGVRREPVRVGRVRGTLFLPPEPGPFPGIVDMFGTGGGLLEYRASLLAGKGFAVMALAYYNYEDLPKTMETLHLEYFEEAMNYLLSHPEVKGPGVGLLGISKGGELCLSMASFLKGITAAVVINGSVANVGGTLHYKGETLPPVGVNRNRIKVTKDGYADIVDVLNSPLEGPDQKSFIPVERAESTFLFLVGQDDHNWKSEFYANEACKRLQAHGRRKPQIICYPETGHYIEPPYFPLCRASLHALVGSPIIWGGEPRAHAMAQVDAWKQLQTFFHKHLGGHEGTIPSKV"}
{"Compound": "CN1CCN(c2cc(-c3ccncc3)c(-c3ccc4ccccc4c3)nn2)CC1", "target": "DRD1 (Homo sapiens, UniProt P21728)", "test": "antagonist, FLIPR", "setting": "10 µM", "measurement": "inhibition", "value": "-2.1%"}
{"Compound": "COC(=O)[C@@]1(O)C[C@H]2O[C@]1(C)n1c3ccccc3c3c4c(c5c6ccccc6n2c5c31)C(=O)NC4", "target": "MAPK3 (Homo sapiens, UniProt P27361)", "test": "ADP-Glo", "setting": "50 µM, with: substrate MBP", "measurement": "remaining activity", "value": "115%"}
{"Compound": "O=C(c1ccc(Cl)cc1)N1CCN2C(=O)N(OC(=O)N3CCOc4ccccc43)C(=O)C2C1 (stereo not shown)", "target": "Acyl-coenzyme A thioesterase 2, mitochondrial (ACOT2, Homo sapiens, UniProt P49753)", "test": "enzyme activity, inhibitor, MS-based ABPP", "system": "SW-620 conditioned medium", "setting": "10 µM, 1 h, 37 °C", "scale": "reference: compound over DMSO, lower = stronger inhibition", "measurement": "median ratio", "value": 1.11}
{"Compound": "[2H]c1c([2H])c([C@]2([2H])CCCN2C(=O)C(C)(C)Oc2ccc3cn[nH]c3c2)c([2H])c([2H])c1C([2H])([2H])[2H]", "target": "PRKD2 (Homo sapiens, UniProt Q9BZL6)", "test": "KINOMEscan", "setting": "1 µM", "scale": "reference: DMSO control", "measurement": "remaining binding", "value": "86%"}
{"Compound": "O=C(Nc1cccnn1)N1CCC(=Cc2cccc(Oc3ccc(C(F)(F)F)cn3)c2)CC1", "target": "IP3 receptor, rat", "test": "binding", "setting": "50 µM, with: [3H]IP3", "measurement": "inhibition", "value": "13%"}
{"Compound": "COc1ccc(N2C(=O)N(c3c(C)cccc3Cl)Cc3cnc(Nc4ccc(C5CCN(C)CC5)cc4OC)nc32)nc1", "target": "CHUK (Homo sapiens, UniProt O15111)", "test": "kinase activity, inhibitor", "setting": "0.5 µM, kinase IKK-ALPHA", "measurement": "inhibition", "value": "-1.62%"}
{"Compound": "CN(C(=O)n1cnc(-c2ccc[n+]([O-])c2)c1)C1CCCCC1", "target": "MAOA (Homo sapiens, UniProt P21397)", "test": "enzyme activity, inhibitor", "setting": "10 µM, human, with: kynuramine substrate", "measurement": "inhibition", "value": "0%"}
{"Compound": "COc1cc(N)c(Cl)cc1C(=O)NC1CN2CCC1CC2 (stereo not shown)", "target": "Probable G-protein coupled receptor 149 (GPR149, Homo sapiens, UniProt Q86SP6)", "test": "β-arrestin recruitment, TANGO luminescence, refers to: GPR149", "setting": "concentration not given", "scale": "reference: basal luminescence", "measurement": "log2 fold change", "value": -0.113}
{"Compound": "O=C(Nc1cnccc1Cl)N1CCN(Cc2ccc3c(c2)OC(F)(F)O3)CC1", "target": "LTB4R (Homo sapiens, UniProt Q15722)", "test": "radioligand binding", "setting": "50 µM, with: [3H]LTB4", "measurement": "inhibition of binding", "value": "0%"}
{"Compound": "C[C@H]1CN(c2n[nH]c3nc(N[C@H]4CC[C@H](NS(=O)(=O)CCC(F)(F)F)CC4)ncc23)CCO1", "target": "ATP1A1 (Homo sapiens, UniProt P05023)", "test": "inhibitor, Kinobeads competition profiling", "setting": "20 µM", "scale": "reference: vehicle", "measurement": "relative abundance", "value": 1.14}
{"note": "Some of these lines once more:"}
{"Compound": "O=C(Nc1cnccc1Cl)N1CCN(Cc2ccc3c(c2)OC(F)(F)O3)CC1", "target": "LTB4R (Homo sapiens, UniProt Q15722)", "test": "radioligand binding", "setting": "50 µM, with: [3H]LTB4", "measurement": "inhibition of binding", "value": "0%"}
